# Experimental data of several laboratories.
# Every numbered part comes from another study and shows a few of its results, in no order. Several values in a cell are separate wells, animals, samples, runs or records.
# UniProt Q6PHR2, sequence (whole entry, looked up): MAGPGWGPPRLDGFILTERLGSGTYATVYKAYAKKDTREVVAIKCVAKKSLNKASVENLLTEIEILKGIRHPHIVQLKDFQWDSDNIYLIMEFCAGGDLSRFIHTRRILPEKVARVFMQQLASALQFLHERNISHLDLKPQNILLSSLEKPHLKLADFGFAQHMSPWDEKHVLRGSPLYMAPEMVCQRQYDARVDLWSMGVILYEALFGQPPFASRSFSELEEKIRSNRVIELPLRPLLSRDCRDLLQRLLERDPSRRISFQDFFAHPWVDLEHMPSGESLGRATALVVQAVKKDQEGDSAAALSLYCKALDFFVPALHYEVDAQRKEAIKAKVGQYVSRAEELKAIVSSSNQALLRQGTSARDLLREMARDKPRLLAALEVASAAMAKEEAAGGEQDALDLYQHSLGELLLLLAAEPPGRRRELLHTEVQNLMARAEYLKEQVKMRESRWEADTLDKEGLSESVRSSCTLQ
# UniProt Q695T7, sequence (whole entry, looked up): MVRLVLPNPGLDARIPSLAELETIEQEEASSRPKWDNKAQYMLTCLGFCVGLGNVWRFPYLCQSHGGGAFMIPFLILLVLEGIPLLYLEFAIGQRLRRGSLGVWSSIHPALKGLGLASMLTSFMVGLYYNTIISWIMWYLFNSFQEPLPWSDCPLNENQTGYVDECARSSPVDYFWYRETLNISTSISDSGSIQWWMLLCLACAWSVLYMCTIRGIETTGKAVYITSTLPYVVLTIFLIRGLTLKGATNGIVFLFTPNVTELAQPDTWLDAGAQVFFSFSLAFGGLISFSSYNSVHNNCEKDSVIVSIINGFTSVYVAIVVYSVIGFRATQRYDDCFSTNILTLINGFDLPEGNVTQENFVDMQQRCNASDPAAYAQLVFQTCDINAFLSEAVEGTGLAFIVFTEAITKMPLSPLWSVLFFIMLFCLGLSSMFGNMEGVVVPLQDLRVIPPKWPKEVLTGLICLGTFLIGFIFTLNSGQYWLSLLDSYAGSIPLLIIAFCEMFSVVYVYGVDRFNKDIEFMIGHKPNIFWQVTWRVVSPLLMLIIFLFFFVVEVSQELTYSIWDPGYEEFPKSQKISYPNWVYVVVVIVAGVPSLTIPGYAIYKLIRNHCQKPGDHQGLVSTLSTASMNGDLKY

# Study 1
# Structure (SMILES): COCC1CC2C(CCC3C(O)CCC32)c2ccc(O)cc21 (stereo not shown)
cell line,method,measured,concentration,baseline,log2 fold change
SK-OV-3,DNA microarray,TMEM108,25 µM,untreated cells,0.147
SK-OV-3,microarray,MCM6,25 µM,untreated,0.165
A549,DNA microarray,MCM7,25 µM,untreated cells,0.192
SK-OV-3,DNA microarray,KIF20A,100 µM,untreated cells,0.0337 and 0.0331 and 0.0654 and 0.000596 and -0.0457
PANC-1,DNA microarray,CCL22 mRNA,100 µM,control,3.59
SK-OV-3,DNA microarray,UBD,25 µM,untreated,-0.364
A549,microarray,SPC25,25 µM,untreated,-0.25
SK-OV-3,DNA microarray,C6,100 µM,untreated cells,8.46
A549,microarray,MCM6,25 µM,untreated,0.0734
PANC-1,DNA microarray,ADAMTS8 mRNA,100 µM,control,5.03
PANC-1,microarray,SPC25,100 µM,untreated,0.49
A549,microarray,CDC25B,100 µM,untreated,-0.0424
SK-OV-3,microarray,SPC25,25 µM,untreated,-0.104
PANC-1,DNA microarray,MCM10,25 µM,untreated cells,0.533
A549,DNA microarray,TMEM108,100 µM,untreated cells,1.58
SK-OV-3,microarray,PIF1,100 µM,untreated,-0.0328
PANC-1,DNA microarray,ADAMTS14 mRNA,100 µM,control,2.78
PANC-1,DNA microarray,ADAMTS8 mRNA,25 µM,control,4.64
SK-OV-3,microarray,PIF1,25 µM,untreated,-0.302
SK-OV-3,microarray,SPC25,100 µM,untreated,-0.375
SK-OV-3,DNA microarray,KIF20A,25 µM,untreated cells,-0.0494 and -0.0936 and -0.0938 and 0.0109 and -0.0865
A549,microarray,GZMK,25 µM,untreated,0

# Study 2
# SMILES: C[C@@H]1CN(c2ccc(-c3cc(C(=O)NCCOCCOCCOCCOCCOCCOCCNC(=O)/C=C/c4[nH]cc(C(=O)N[C@@H](CC(N)=O)c5ccc(F)c(Cl)c5)c4-c4ccc(Cl)cc4F)ccc3F)cc2NC(=O)c2ccc(F)cc2C(F)(F)F)C[C@H](C)N1C
# Effect on: thermal unfolding
# Method: differential scanning fluorimetry
# Concentration: 5.5 µM
# Direction: higher = more unfolded
# WDR5: WD repeat-containing protein 5 (WDR5, Homo sapiens, UniProt P61964)
# DCAF1: DDB1- and CUL4-associated factor 1 (DCAF1, Homo sapiens, UniProt Q9Y4B6)
# UniProt Q9Y4B6, sequence (whole entry, looked up): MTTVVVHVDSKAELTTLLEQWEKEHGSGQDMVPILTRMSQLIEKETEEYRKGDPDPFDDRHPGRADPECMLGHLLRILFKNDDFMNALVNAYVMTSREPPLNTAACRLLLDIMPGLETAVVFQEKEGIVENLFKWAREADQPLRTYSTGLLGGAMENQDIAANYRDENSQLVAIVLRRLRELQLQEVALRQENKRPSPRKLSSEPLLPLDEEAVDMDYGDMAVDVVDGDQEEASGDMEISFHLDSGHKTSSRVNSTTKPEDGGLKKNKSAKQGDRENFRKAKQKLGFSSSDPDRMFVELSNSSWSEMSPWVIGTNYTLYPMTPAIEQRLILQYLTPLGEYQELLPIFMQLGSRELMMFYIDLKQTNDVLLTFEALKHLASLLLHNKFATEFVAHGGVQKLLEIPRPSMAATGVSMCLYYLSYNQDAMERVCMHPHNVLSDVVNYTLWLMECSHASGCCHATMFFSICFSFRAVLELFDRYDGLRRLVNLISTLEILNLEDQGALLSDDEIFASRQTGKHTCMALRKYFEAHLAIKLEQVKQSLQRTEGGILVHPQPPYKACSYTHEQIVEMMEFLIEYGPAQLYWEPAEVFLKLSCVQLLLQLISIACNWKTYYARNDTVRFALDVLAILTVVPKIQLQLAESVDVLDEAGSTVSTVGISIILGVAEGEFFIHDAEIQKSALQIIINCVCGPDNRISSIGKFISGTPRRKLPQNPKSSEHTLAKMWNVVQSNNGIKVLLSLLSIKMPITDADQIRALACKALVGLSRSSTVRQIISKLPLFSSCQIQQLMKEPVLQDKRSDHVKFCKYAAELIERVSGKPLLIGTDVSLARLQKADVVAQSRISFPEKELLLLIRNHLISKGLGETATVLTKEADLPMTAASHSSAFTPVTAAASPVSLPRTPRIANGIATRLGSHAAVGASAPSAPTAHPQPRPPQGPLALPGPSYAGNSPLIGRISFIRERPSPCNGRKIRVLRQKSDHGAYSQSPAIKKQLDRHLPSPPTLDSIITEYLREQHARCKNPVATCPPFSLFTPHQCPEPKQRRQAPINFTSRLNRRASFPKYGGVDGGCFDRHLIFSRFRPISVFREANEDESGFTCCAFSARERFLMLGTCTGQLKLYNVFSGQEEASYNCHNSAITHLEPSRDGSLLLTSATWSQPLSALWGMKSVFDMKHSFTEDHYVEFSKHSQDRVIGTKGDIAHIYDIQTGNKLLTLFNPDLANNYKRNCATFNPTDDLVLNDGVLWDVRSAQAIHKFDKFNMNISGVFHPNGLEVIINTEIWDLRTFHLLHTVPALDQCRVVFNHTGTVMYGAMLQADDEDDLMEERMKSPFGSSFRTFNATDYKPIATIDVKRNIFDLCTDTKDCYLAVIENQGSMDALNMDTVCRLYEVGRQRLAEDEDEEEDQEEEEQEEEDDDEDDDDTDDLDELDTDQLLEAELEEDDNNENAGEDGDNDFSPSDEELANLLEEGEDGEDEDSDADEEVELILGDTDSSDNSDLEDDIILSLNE
target,temperature,SYPRO Orange fluorescence [a.u.]
WDR5,27.4 °C,13400
WDR5,93.21 °C,50300
WDR5,67.41 °C,20200
WDR5,63.81 °C,15500
DCAF1,53.01 °C,22300
WDR5,38 °C,13800
DCAF1,26.6 °C,7460
WDR5,74.01 °C,44400
DCAF1,79.21 °C,40500
WDR5,77.41 °C,58400
DCAF1,29.8 °C,8300

# Study 3
# Structure (SMILES): Cc1ccc(O)c(C)c1-c1cnc2[nH]c(-c3cnc(N4CC5(CC(CN6CCN(c7ccc(NC8CCC(=O)NC8=O)cc7F)CC6)C5)C4)nc3)cc2c1C#N (stereo not shown)
# Target: Membrane-associated tyrosine- and threonine-specific cdc2-inhibitory kinase (PKMYT1, Homo sapiens, UniProt Q99640)
# UniProt Q99640, sequence (whole entry, looked up): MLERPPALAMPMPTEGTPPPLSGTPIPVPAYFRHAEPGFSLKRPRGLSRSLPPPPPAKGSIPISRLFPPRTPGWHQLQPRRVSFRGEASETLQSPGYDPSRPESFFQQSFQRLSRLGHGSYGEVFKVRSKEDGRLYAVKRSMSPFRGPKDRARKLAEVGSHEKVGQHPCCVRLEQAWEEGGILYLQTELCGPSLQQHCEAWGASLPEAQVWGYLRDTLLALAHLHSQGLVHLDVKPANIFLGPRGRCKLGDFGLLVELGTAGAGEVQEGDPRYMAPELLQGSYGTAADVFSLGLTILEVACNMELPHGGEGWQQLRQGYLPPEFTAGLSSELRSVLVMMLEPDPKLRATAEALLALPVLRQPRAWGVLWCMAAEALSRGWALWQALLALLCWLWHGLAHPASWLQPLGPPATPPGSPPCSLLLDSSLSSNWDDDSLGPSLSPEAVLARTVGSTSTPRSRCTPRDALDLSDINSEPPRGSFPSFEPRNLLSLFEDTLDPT
effect on,mode,method,concentration,inhibition
,,,0.01235 µM,92.9%
cell-free assay,inhibitor,TR-FRET,1.37 nM,26.8%
,,,0.00137 µM,24.4%
,,,0.1111 µM,98.8%
,,,0.00046 µM,8.09%
,,,0.03704 µM,97.9%
cell-free assay,inhibitor,TR-FRET,0.3333 µM,99.1%
cell-free assay,inhibitor,TR-FRET,12.35 nM,92.8%

# Study 4
# Cell line: L444P/L444P Gaucher fibroblasts
# Method: 4-MUG hydrolysis in lysate
# Concentration: 0.1 µM
# Time: 72 h
# Baseline: vehicle
SMILES,enzyme activity
CCN(CC)c1nc(NCCN2CCOCC2)nc(Nc2ccc(I)cc2)n1,95%
Ic1ccc(Nc2nc(NCCN3CCCCC3)nc(N3CCOCC3)n2)cc1,101%
Ic1ccc(Nc2nc(NCCN3CCOCC3)nc(N3CC4CCC(C3)O4)n2)cc1,105%
CCOc1ccc2nc(Sc3nc(Nc4ccc(I)cc4)nc(N4CCOCC4)n3)sc2c1,103% and 99.8% and 99.4% and 95.5% and 101% and 100%
Ic1cccc(Nc2nc(NCCN3CCOCC3)nc(N3CCOCC3)n2)c1,99%
CCOc1ccc2nc(Sc3nc(Nc4ccc(OC)cc4)nc(N4CCOCC4)n3)sc2c1,103%
Fc1ccc(Nc2nc(NCCN3CCOCC3)nc(N3CCOCC3)n2)cc1,98%
CCOc1ccc2nc(Sc3nc(NCCN4CCOCC4)nc(Nc4ccc(I)cc4)n3)sc2c1,97%
COc1ccc(Nc2nc(NCCN3CCOCC3)nc(N3CCOCC3)n2)cc1,101%
c1ccc(Nc2nc(NCCN3CCOCC3)nc(N3CCOCC3)n2)cc1,97%

# Study 5
# Compound: O=C(Nc1ccccc1)Nc1cccc(Oc2ccc3nccn3n2)c1
# Concentration: 1 µM
target,effect on,method,remaining binding [%]
"Proto-oncogene tyrosine-protein kinase receptor Ret (RET, Homo sapiens, UniProt P07949, V804M)",binding,,100
"Tyrosine-protein kinase CSK (CSK, Homo sapiens, UniProt P41240)",binding,competition with immobilised ligand,100
"MAP kinase-activated protein kinase 5 (MAPKAPK5, Homo sapiens, UniProt Q8IW41)",binding,,100
"Aurora kinase C (AURKC, Homo sapiens, UniProt Q9UQB9)",,cell-free binding,74
"Serine/threonine-protein kinase ULK3 (ULK3, Homo sapiens, UniProt Q6PHR2)",,cell-free binding,100
"Inhibitor of nuclear factor kappa-B kinase subunit alpha (CHUK, Homo sapiens, UniProt O15111)",binding,,93
"Myosin-IIIa (MYO3A, Homo sapiens, UniProt Q8NEV4)",binding,,100
"Wee1-like protein kinase 2 (WEE2, Homo sapiens, UniProt P0C1S8)",binding,competition with immobilised ligand,59
"Serine/threonine-protein kinase Sgk2 (SGK2, Homo sapiens, UniProt Q9HBY8)",binding,,92
"Mitogen-activated protein kinase kinase kinase 12 (MAP3K12, Homo sapiens, UniProt Q12852)",binding,,100
"Rhodopsin kinase GRK7 (GRK7, Homo sapiens, UniProt Q8WTQ7)",binding,,100
"Epidermal growth factor receptor (EGFR, Homo sapiens, UniProt P00533)",binding,competition with immobilised ligand,67
"Muscle, skeletal receptor tyrosine-protein kinase (MUSK, Homo sapiens, UniProt O15146)",,cell-free binding,100

# Study 6
# SMILES: CCN1/C(=C/C=C2\CCCC(/C=C/C3=[N+](CC)c4ccccc4C3(C)C)=C2NCCCCCCCCN2CCC(Nc3nc4ccccc4n3Cc3ccc(F)cc3)CC2)C(C)(C)c2ccccc21
# Cell line: U-87 MG
# Concentration: concentration not given
# Baseline: DMSO
measured,log2 fold change
CBR3 mRNA,-1.35
ANKRD42 mRNA,1.11
FANCC mRNA,-0.91
ZFAND3 mRNA,1.02
NGF mRNA,2.18
PCDHGC4 mRNA,-1.01
MDFIC mRNA,-0.838
CENPE mRNA,-1.77
ICOSLG mRNA,2.2
BORA mRNA,-1.4
IL36G mRNA,3.57
MYRF mRNA,-1.61

# Study 7
# SMILES: CCN1C(=O)C(O)(C(=O)O)Oc2cc(F)ccc21 (stereo not shown)
organism,test,test system,setting,scale,inhibition
Arabidopsis thaliana,root length,"Col-0, seedlings",6.25 µg/mL,baseline: water control,17%
Arabidopsis thaliana,hypocotyl length,Col-0,"100 µg/mL, 7 days, seed germination, dark",,48.6%
Arabidopsis thaliana,root length,"Col-0, seedlings",3.125 µg/mL,,10.8%
Amaranthus retroflexus,fresh weight,,"150 g ai/ha, post-emergence treatment",,40.6% and 41.9% and 44.5%
Arabidopsis thaliana,hypocotyl length,"Col-0, seedlings",12.5 µg/mL,,22.5%
Arabidopsis thaliana,hypocotyl length,Col-0,"25.0 µg/mL, 7 days, seed germination, dark",,28.4%
Glycine max,fresh weight,,"soil surface spray, 150 g ai/ha, 21 days, pre-emergence crop safety",,30.1% and 31.7% and 29.7%
Arabidopsis thaliana,root length,"Col-0, seedlings",25 µg/mL,,36.4%
Arabidopsis thaliana,root length,"Col-0, seedlings",50 µg/mL,baseline: water control,42.6%
Arabidopsis thaliana,root length,"Col-0, seedlings",25 µg/mL,baseline: water control,36.4%
Arabidopsis thaliana,hypocotyl length,"Col-0, seedlings",100 µg/mL,,48.6%
Arabidopsis thaliana,hypocotyl length,Col-0,"12.5 µg/mL, 7 days, seed germination, dark",,22.5%
Arabidopsis thaliana,root length,"Col-0, seedlings",50 µg/mL,,42.6%

# Study 8
# SMILES: Cc1ncsc1-c1ccc(C(CO)NC(=O)C2CC(O)CN2C(=O)C(C(C)C)n2cc(-c3ccc(COc4c(-c5c(C)c(F)cc6[nH]ncc56)c(C5CC5)cc5c(N6CC7CC6CN7)nc(OC6CCOCC6)nc45)cc3)nn2)cc1 (stereo not shown)
# Effect on: cell growth or viability
# Method: ATP luminescence
# Time: 6 days
cell line,concentration,viability
NCI-H1299,10 nM,97.1% and 102% and 93.7% and 110%
BXPC-3,3 nM,101% and 88.5% and 103% and 107%
HCT-116,1 nM,96.6% and 122% and 91% and 102%
SK-CO-1,3 nM,104% and 116% and 99.6% and 100%
SW-403,30 nM,78.3% and 74.6% and 85.5% and 70.8%
GP2d,30 nM,27% and 29.2% and 32.3% and 30.6%

# Study 9
# Target: Receptor-interacting serine/threonine-protein kinase 3 (RIPK3, Homo sapiens, UniProt Q9Y572)
# UniProt Q9Y572, sequence (whole entry, looked up): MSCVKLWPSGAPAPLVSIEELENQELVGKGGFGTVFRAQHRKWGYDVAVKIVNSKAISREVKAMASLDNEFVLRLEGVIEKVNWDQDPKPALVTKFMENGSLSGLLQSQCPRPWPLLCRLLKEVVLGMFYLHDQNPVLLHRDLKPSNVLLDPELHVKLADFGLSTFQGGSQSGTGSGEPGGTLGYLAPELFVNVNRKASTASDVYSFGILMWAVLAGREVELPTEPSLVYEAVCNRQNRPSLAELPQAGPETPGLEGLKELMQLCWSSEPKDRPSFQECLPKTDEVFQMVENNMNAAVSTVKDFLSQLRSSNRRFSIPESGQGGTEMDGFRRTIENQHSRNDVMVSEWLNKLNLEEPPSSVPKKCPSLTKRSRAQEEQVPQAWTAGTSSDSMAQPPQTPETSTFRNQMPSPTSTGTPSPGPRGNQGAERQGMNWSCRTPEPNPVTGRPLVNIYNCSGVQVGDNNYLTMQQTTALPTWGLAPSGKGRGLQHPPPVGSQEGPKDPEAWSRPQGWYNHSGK
# Effect on: enzyme activity
# Mode: inhibitor
# Method: ADP detection
SMILES,IC50 [nM]
CC(C)(C)n1nc(-c2ccc(Cl)cc2)c2c(N)ncnc21,28.6
Cc1c(NC(=O)c2cccn(-c3ccc(F)cc3)c2=O)ccc(Oc2ccnc(NC(=O)C3CC3)c2)c1C,56.3
Cc1cc(-c2cnc(N)c3c(-c4ccc5scnc5c4)csc23)n(C)n1,49.4

# Other studies, line by line
SMILES,tested on,test,test system,setting,scale,measurement,result
CCn1cnc2c(NCc3nc4ccc(F)c(F)c4[nH]3)nc(N3CCn4ncnc4C3)nc21,MDA-MB-231,"degrader, western blot, measured: cyclin K",,"5 nM, 24 h",,degradation,44.2%
NC/C(=C\F)COc1ccc(-c2cc(=O)[nH]c(=S)n2CC(N)=O)c(Cl)c1,"Myeloperoxidase (MPO, Homo sapiens, UniProt P05164)","enzyme activity, inhibitor, fluorescence",,0.1235 µM,,inhibition,58.1%
CCN(CC)CC(=O)N1CCN(c2nc(NCc3nc4cc(Cl)c(Cl)cc4[nH]3)c3ncn(CC)c3n2)CC1,MDA-MB-231,"degrader, DIA proteomics",,"100 nM, 2 h",baseline: DMSO,cyclin K level fold change,0.064
CCNC(=O)COc1cc(C)c(Cl)c(C)c1,"Sodium-dependent neutral amino acid transporter B(0)AT1 (SLC6A19, Homo sapiens, UniProt Q695T7)",FLIPR membrane potential,CHO-BC,concentration not given,baseline: 100 µM cinromide set to 0,remaining activity,6.24%
CCn1cnc2c(NCc3nc4cc(F)c(F)cc4[nH]3)nc(N3CCn4ncnc4C3)nc21,MDA-MB-231,"degrader, western blot, measured: cyclin K",,"50 nM, 24 h",,degradation,65.8%

# A few entries again (study 2):
target,temperature,SYPRO Orange fluorescence [a.u.]
DCAF1,53.01 °C,22300
DCAF1,79.21 °C,40500
DCAF1,26.6 °C,7460
WDR5,27.4 °C,13400
WDR5,74.01 °C,44400
WDR5,67.41 °C,20200
WDR5,93.21 °C,50300
WDR5,38 °C,13800
WDR5,63.81 °C,15500
DCAF1,29.8 °C,8300
WDR5,77.41 °C,58400
